{"data": "Results of several laboratories", "inhA": "Enoyl-[acyl-carrier-protein] reductase [NADH] (inhA, Mycobacterium tuberculosis, UniProt P9WGR1)", "OPRM1 with beta-arrestin-2": "Mu-type opioid receptor, with beta-arrestin-2 (OPRM1, Homo sapiens, UniProt P35372)", "ACHE": "Acetylcholinesterase (ACHE, Homo sapiens, UniProt P22303)", "note": "Each line is one published result; not all experiments were run side by side. Several values in a cell are separate wells, animals, samples, runs or records. ± gives the spread as reported."}
{"Structure (SMILES)": "O=C(O)c1ccc(-c2ccc(C(F)(F)F)cc2Cl)o1", "target or system": "mbtI (Mycobacterium tuberculosis, UniProt P9WFX1)", "assay": "enzyme activity", "conditions": "100 µM, pH 7.5", "measurement": "remaining activity", "value": "6.1 ± 2.5%"}
{"Structure (SMILES)": "Oc1cc(Cn2cc(C3CC3)nn2)ccc1Oc1ccccc1Cl", "target or system": "inhA", "how to read": "baseline: fitted k6 over koff", "measurement": "koff ratio", "value": "3 fold"}
{"Structure (SMILES)": "O=C(Nc1c(F)cncc1F)c1nn(Cc2ccc(Cl)cc2Cl)c2ccccc12", "target or system": "Calcium release-activated calcium channel protein 1, with STIM1 (Rattus norvegicus, UniProt Q5M848)", "assay": "Ca2+ influx, inhibitor", "system": "RBL-2H3", "conditions": "30 µM, together with: thapsigargin", "measurement": "inhibition", "value": "46%"}
{"Structure (SMILES)": "ON=C1c2nonc2C(=NO)c2nonc21", "target or system": "USP5 (Homo sapiens, UniProt P45974)", "assay": "inhibitor", "conditions": "17 µM", "measurement": "inhibition", "value": "94%"}
{"Structure (SMILES)": "N#Cc1ccc(-c2ccc(COCCc3ccc(-c4nc5cc(-c6ccccc6)ccn5c4Nc4ccc(C(=O)O)cc4)cc3)cc2)nc1", "target or system": "TDP2 (Homo sapiens, UniProt O95551)", "how to read": "baseline: TDP1 IC50 over TDP2 IC50", "measurement": "selectivity ratio", "value": "> 36"}
{"Structure (SMILES)": "Cc1ccc(S(=O)(=O)Nc2cccc(C(=O)NC3CCN(c4ncnc5[nH]cnc45)CC3)c2)cc1Cl", "target or system": "A549-ACE2", "conditions": "7.407 µM", "measurement": "viability", "value": "96.6%"}
{"Structure (SMILES)": "CCC(c1ccc(-c2ccc(F)cc2)c(F)c1)n1ccnc1 (stereo not drawn)", "target or system": "cyp121 (Mycobacterium tuberculosis, UniProt P9WPP7)", "assay": "binding", "measurement": "Kd", "value": "5.3 ± 1.2 µM"}
{"Structure (SMILES)": "N#Cc1ccccc1Oc1ccc(Cn2cc(C3CC3)nn2)cc1O", "target or system": "inhA", "assay": "enzyme inhibition, inhibitor, progress curve analysis", "conditions": "20 °C", "measurement": "residence time", "value": "194 ± 3 min"}
{"Structure (SMILES)": "Cc1ccccc1S(=O)(=O)Nc1cccc(C(=O)NC2CCN(c3ncnc4[nH]cnc34)CC2)c1", "target or system": "A549-ACE2", "conditions": "0.03048 µM", "measurement": "viability", "value": "104%"}
{"Structure (SMILES)": "Cc1ccc(-c2csc(NP(=O)(O)OCC3OC(n4c[n+](Cc5ccccc5)c5c(=O)[nH]c(NC(=O)c6ccccc6)nc54)C4OC(C)(C)OC34)n2)cc1 (stereo not drawn)", "target or system": "EIF4E (Homo sapiens, UniProt P06730)", "assay": "measured: EIF4E", "system": "MCF7", "measurement": "protein level", "value": "4.23 ng/mL"}
{"Structure (SMILES)": "COC(=O)[C@@H]1C=C(OC(=O)c2ccc(O)c(Br)c2)C(=O)[C@H]2[C@@]1(C)CC[C@H]1C(=O)O[C@H](c3ccoc3)C[C@]21C", "target or system": "OPRM1 with beta-arrestin-2", "assay": "β-arrestin-2 vs cAMP, agonist", "how to read": "baseline: DAMGO, higher = β-arrestin-2 bias", "measurement": "bias factor", "value": 0.57}
{"Structure (SMILES)": "CC(C)C[C@H](NC(=O)[C@@H]1C[C@@H](O)CN1C(=O)[C@@H]1CSSC[C@H](NC(=O)[C@@H](NC(=O)[C@@H]2CCCN2)C(C)C)C(=O)N[C@H](Cc2c[nH]c3ccccc23)C(=O)N[C@@H](CCCCN)C(=O)N[C@@H](Cc2ccccc2)C(=O)NCC(=O)N1)C(=O)O", "target or system": "SSTR1 (Homo sapiens, UniProt P30872)", "assay": "G protein dissociation, agonist", "conditions": "1 µM, together with: GαoA", "measurement": "activation", "value": "~30%"}
{"Structure (SMILES)": "Cc1ccccc1Oc1ccc(Cn2cc(C3CC3)nn2)cc1O", "target or system": "inhA", "conditions": "20 °C, EI to EI*", "measurement": "isomerization rate k5", "value": "1.2 min⁻¹"}
{"Structure (SMILES)": "c1ccc2c[n+](CCCCCCCC[n+]3ccc4ccccc4c3)ccc2c1", "target or system": "ACHE", "how to read": "baseline: BChE IC50 over AChE IC50", "measurement": "selectivity ratio", "value": 80}
{"Structure (SMILES)": "O=C(C1CCN(Cc2cccc3ccccc23)CC1)N1CCc2ccccc2C1", "target or system": "ache (Electrophorus electricus, UniProt O42275)", "assay": "enzyme activity, inhibitor, Ellman", "conditions": "300 µM, together with: acetylthiocholine iodide", "measurement": "Vmax", "value": "0.032 absorbance units/min"}
{"Structure (SMILES)": "CC(C)(C)O[C@@H]1C[C@@H](C(=O)N[C@H](Cc2ccccc2)C(=O)C(=O)NCc2ccc(Cl)cn2)N(C(=O)[C@@H](NC(=O)C2CCC(F)(F)CC2)C2CCCCC2)C1", "target or system": "TMPRSS2 (Homo sapiens, UniProt O15393, Q253D/R252D/R255K/S251D/S254D)", "assay": "enzyme activity, inhibitor", "conditions": "0.6859 µM", "measurement": "inhibition", "value": "2.14% and -1.99% and 1.13%"}
{"Structure (SMILES)": "N#Cc1ccccc1Oc1ccc(Cn2cc(C3CCCC3)nn2)cc1O", "target or system": "inhA", "conditions": "20 °C, EI to EI*", "measurement": "isomerization rate k5", "value": "2.23 min⁻¹"}
{"Structure (SMILES)": "C[C@@H]1NC(=O)[C@H](CCCNC(=N)N)NC(=O)[C@H](CCCNC(=N)N)NC(=O)[C@@H]2CCCN2C(=O)[C@H](CO)NC(=O)[C@@H]2CSSC[C@H](NC(=O)CN)C(=O)N[C@@H](CSSC[C@@H](C(N)=O)NC(=O)[C@H](CO)NC(=O)[C@H](CCCNC(=N)N)NC1=O)C(=O)N[C@@H](CO)C(=O)N[C@@H](Cc1c[nH]cn1)C(=O)N1CCC[C@H]1C(=O)N[C@@H](C)C(=O)N2", "target or system": "CHRNA7 (Homo sapiens, UniProt P36544)", "assay": "ion current, antagonist", "system": "Xenopus oocytes", "conditions": "10 µM, 5 min, together with: acetylcholine", "how to read": "baseline: control", "measurement": "remaining response", "value": "16 ± 8%"}
{"Structure (SMILES)": "CC[C@H](C)[C@@H]([C@@H](CC(=O)N1CCC[C@H]1[C@H](OC)[C@@H](C)C(=O)NCCc1ccccc1)OC)N(C)C(=O)[C@@H](NC(=O)[C@H](C(C)C)N(C)C)C(C)C [isotope labelled]", "target or system": "Tubulin alpha-1A/beta chain (Sus scrofa, UniProt P02550+P02554)", "assay": "microtubule polymerization", "conditions": "3 µM, 30 min", "measurement": "inhibition", "value": "78.6%"}
{"Structure (SMILES)": "NCCNCCSc1ccccc1", "system": "Swiss albino mice, female, plasma", "conditions": "oral, 400 mg/kg", "measurement": "CL/F", "value": "320 mL/min/kg"}
{"Structure (SMILES)": "C#CCOCCC(=O)N[C@H](Cc1ccccc1)C(=O)N[C@@H](Cc1ccccc1)C(=O)N[C@@H](CCCNC(=N)N)C(=O)CCl", "target or system": "Replicase polyprotein 1ab, main protease (rep, Severe acute respiratory syndrome coronavirus 2, UniProt P0DTD1)", "assay": "enzyme activity, inhibitor", "how to read": "baseline: PLpro IC50 over target IC50", "measurement": "selectivity ratio", "value": "> 275 fold"}
{"Structure (SMILES)": "CSCC[C@H](NC(=O)[C@H](Cc1ccccc1)NC(=O)CNC(=O)CNC(=O)[C@@H](N)Cc1ccc(O)cc1)C(=O)O", "target or system": "Puromycin-sensitive aminopeptidase (Rattus norvegicus, UniProt F1M9V7)", "assay": "substrate", "conditions": "rat enzyme", "measurement": "Km", "value": "80 µM"}
{"Structure (SMILES)": "CC[C@H](C)[C@@H]1NC(=O)[C@H](CCC(=O)O)NC(=O)[C@@H]2CCCN2C(=O)[C@H](Cc2c[nH]cn2)NC(=O)[C@H](CC(=O)O)NC(=O)[C@H](Cc2ccc(O)cc2)NC(=O)[C@H](CC(N)=O)NC(=O)[C@@H]2CSSC[C@@H]3NC(=O)CNC(=O)COCCOCCOCCOCCOCCNC(=O)[C@H](CSSC[C@H](NC3=O)C(=O)N[C@@H](CO)C(=O)N[C@@H](CC(=O)O)C(=O)N3CCC[C@H]3C(=O)N[C@@H](CCCNC(=N)N)C(=O)N2)NC1=O", "target or system": "Neuronal acetylcholine receptor; alpha9/alpha10 (Homo sapiens, UniProt Q9GZZ6+Q9UGM1)", "assay": "ACh-evoked current, two-electrode voltage clamp", "system": "Xenopus oocytes", "conditions": "1 µM, together with: ACh 6 µM", "measurement": "inhibition", "value": "~50%"}
{"Structure (SMILES)": "N#Cc1ccccc1Oc1ccc(Cn2cc(C3CCCCC3)nn2)cc1O", "target or system": "inhA", "conditions": "20 °C, EI to EI*", "measurement": "isomerization rate k5", "value": "0.27 min⁻¹"}
{"Structure (SMILES)": "c1ccc2c(c1)ccc[n+]2CCCCCCCCCC[n+]1cccc2ccccc21", "target or system": "ACHE", "how to read": "baseline: BChE IC50 over AChE IC50", "measurement": "selectivity ratio", "value": 100}
{"Structure (SMILES)": "CC(C)[C@H](NC(=O)[C@@H]1CCCN1C(=O)[C@H](C)NC(=O)[C@H](CO)NC(=O)[C@H](C)NC(=O)[C@H](CC(N)=O)NC(=O)[C@H](CCC(=O)O)NC(=O)[C@@H](NC(=O)[C@H](CC(=O)O)NC(=O)[C@H](CCCCN)NC(=O)[C@H](C)NC(=O)[C@H](CCC(N)=O)NC(=O)[C@H](Cc1ccccc1)NC(=O)[C@H](C)NC(=O)[C@H](Cc1c[nH]c2ccccc12)NC(=O)[C@H](C)NC(=O)[C@@H](NC(=O)CN)C(C)C)C(C)C)C(=O)O", "target or system": "Peptide cyclase 1 (Gypsophila vaccaria, UniProt R4P353, S562A)", "assay": "binding, isothermal titration calorimetry", "conditions": "pH 8.0, 25 °C", "measurement": "-TΔS", "value": "3.25 kcal/mol"}
{"Structure (SMILES)": "COc1ccc(CN[C@@H]2CO[C@H](C(c3ccccc3)c3ccccc3)C[C@H]2O)cc1", "target or system": "CHRM4 (Homo sapiens, UniProt P08173)", "assay": "radioligand binding", "conditions": "10 µM, together with: [3H]QNB", "measurement": "inhibition", "value": "-3.4%"}
{"Structure (SMILES)": "CCN(CC)Cc1cc(N)ccc1O", "target or system": "ACHE", "assay": "enzyme activity, inhibitor", "conditions": "1 mM", "measurement": "inhibition", "value": "60%"}
{"Structure (SMILES)": "CN1CC[C@]23c4c5ccc(O)c4O[C@H]2c2ncc(-c4ccc(Cl)cc4)cc2C[C@@]3(OCCCc2ccccc2)[C@H]1C5", "target or system": "OPRD1 (Homo sapiens, UniProt P41143)", "assay": "agonist", "system": "CHO membranes", "measurement": "Emax", "value": "73 ± 1.5%"}
{"Structure (SMILES)": "COC(=O)[C@@H]1C=C(OC(=O)c2ccc(O)c(F)c2)C(=O)[C@H]2[C@@]1(C)CC[C@H]1C(=O)O[C@H](c3ccoc3)C[C@]21C", "target or system": "OPRM1 with beta-arrestin-2", "assay": "β-arrestin-2 vs cAMP, agonist", "how to read": "baseline: DAMGO, higher = β-arrestin-2 bias", "measurement": "bias factor", "value": 1.4}
{"note": "Repeated from above:"}
{"Structure (SMILES)": "N#Cc1ccccc1Oc1ccc(Cn2cc(C3CCCC3)nn2)cc1O", "target or system": "inhA", "conditions": "20 °C, EI to EI*", "measurement": "isomerization rate k5", "value": "2.23 min⁻¹"}
{"Structure (SMILES)": "C[C@@H]1NC(=O)[C@H](CCCNC(=N)N)NC(=O)[C@H](CCCNC(=N)N)NC(=O)[C@@H]2CCCN2C(=O)[C@H](CO)NC(=O)[C@@H]2CSSC[C@H](NC(=O)CN)C(=O)N[C@@H](CSSC[C@@H](C(N)=O)NC(=O)[C@H](CO)NC(=O)[C@H](CCCNC(=N)N)NC1=O)C(=O)N[C@@H](CO)C(=O)N[C@@H](Cc1c[nH]cn1)C(=O)N1CCC[C@H]1C(=O)N[C@@H](C)C(=O)N2", "target or system": "CHRNA7 (Homo sapiens, UniProt P36544)", "assay": "ion current, antagonist", "system": "Xenopus oocytes", "conditions": "10 µM, 5 min, together with: acetylcholine", "how to read": "baseline: control", "measurement": "remaining response", "value": "16 ± 8%"}
{"Structure (SMILES)": "CC[C@H](C)[C@@H]([C@@H](CC(=O)N1CCC[C@H]1[C@H](OC)[C@@H](C)C(=O)NCCc1ccccc1)OC)N(C)C(=O)[C@@H](NC(=O)[C@H](C(C)C)N(C)C)C(C)C [isotope labelled]", "target or system": "Tubulin alpha-1A/beta chain (Sus scrofa, UniProt P02550+P02554)", "assay": "microtubule polymerization", "conditions": "3 µM, 30 min", "measurement": "inhibition", "value": "78.6%"}
{"Structure (SMILES)": "NCCNCCSc1ccccc1", "system": "Swiss albino mice, female, plasma", "conditions": "oral, 400 mg/kg", "measurement": "CL/F", "value": "320 mL/min/kg"}
{"Structure (SMILES)": "C#CCOCCC(=O)N[C@H](Cc1ccccc1)C(=O)N[C@@H](Cc1ccccc1)C(=O)N[C@@H](CCCNC(=N)N)C(=O)CCl", "target or system": "Replicase polyprotein 1ab, main protease (rep, Severe acute respiratory syndrome coronavirus 2, UniProt P0DTD1)", "assay": "enzyme activity, inhibitor", "how to read": "baseline: PLpro IC50 over target IC50", "measurement": "selectivity ratio", "value": "> 275 fold"}
